# Assay results from different studies.
# Lines come from different studies, so protocols differ. Numbers after ± are the reported error.
# B1: Urtica dioica agglutinin; sequence looked up; chain QRCGSQGGGGTCPALWCCSIWGWCGDSEPYCGRTCENKCWSGERSDHRCGAAVGNPPCGQDRCCSVHGWCGGGNDYCSGSKCQYRCSSSVRGPRVALSGNSTANSIGNVVVTEPLFDQMFSHRKDCPSQGFYSYHSFLVAAESFPAFGTIGDVATRKREVAAFLAHISQATSGERSDVENPHAWGLCHINTTTVTENDFCTSSDWPCAAGKKYSPRGPIQLTHNFNYGLAGQAIGEDLIQNPDLVEKDPIISFKTALWFWMSQHDNKPSCHDIVLNANSAANRIPNKGVIGNIISRAFGHDDFAVRSSSIGFYKRYCDMLGVSYGHDLKYWFDNTPSSEFQRIQMRVAA
Molecule,organism,test,system,conditions,EC50
COC(=O)c1c[nH]c2cc(CN3CCN(Cc4ccccc4)CC3)ccc2c1=O,Plasmodium berghei,,"HepG2, liver stage",44 h,0.044 to 0.083 µM
CN(Cc1ccc(F)cc1F)C(=O)c1cn(Cc2ccc(F)cc2)cc(O)c1=O,Human betaherpesvirus 5,"viral replication, inhibitor",,7 days,1.4 µM
COC(=O)N[C@H](C(=O)N1CCC[C@H]1c1ncc(-c2ccc(-c3ccc(-c4cnc([C@@H]5CCCN5C(=O)[C@@H](NC(=O)OC)C(C)C)[nH]4)cc3)cc2)[nH]1)C(C)C,hepatitis C virus,"viral replication, transient replicon",genotype 1a NS5A L31V,,0.02 ± 0.006 µM
COC(=O)CN1C(C(=O)c2cccc(Cl)c2)=C(O)c2ccccc2S1(=O)=O,HIV-1,viral replication,PBMC,,20 µM
Nc1ncnc2c1ncn2[C@@H]1CS[C@H](CO)[C@H]1F,Coxsackievirus B3,viral cytopathic effect,HeLa,,> 100 µg/mL
N/C(=N\O)c1cc(O)c(O)c(O)c1,human cytomegalovirus,"viral spread, GFP reporter","MRC-5, BADrUL131-Y4 (AD169, GFP)",14 d,43 ± 5.5 µM
CC1(C)OB(c2ccc(NC(=O)c3cn(Cc4ccc(F)cc4)cc(O)c3=O)cc2)OC1(C)C,Human betaherpesvirus 5,"viral replication, inhibitor",,7 days,3 µM
COc1cc(C=C2CCCC(=Cc3ccc(O)c(OC)c3)C2=O)ccc1O,dengue virus 2,"viral replication, plaque reduction",BHK-21,,2.34 ± 0.21 µM
Cc1ccc(S(=O)(=O)N2C(=O)CSC2c2ccccc2)cc1 (stereo not shown),herpes simplex virus 1,viral cytopathicity,"HEL, KOS",,> 100 µM
O=C(CN1c2c(n[nH]c2-c2cccc(Cl)c2)-c2ccccc2S1(=O)=O)NN=Cc1ccccc1[N+](=O)[O-],HIV-1,viral replication,PBMC,,> 100 µM
Cc1ccc2c(c1)/C(=N/NC(=O)N/N=C1\C(=O)Nc3ccc(C)cc31)C(=O)N2,respiratory syncytial virus,viral replication,HeLa,,> 100 µM
O=S(=O)(c1cccs1)N1CCCCN2[C@H](CO)[C@@H](c3ccc(/C=C/c4ccccc4)cc3)[C@@H]2C1,respiratory syncytial virus,cytopathic effect,"HEp-2, A2","5 days, original sample",1.7 µM
O=C1Nc2ccccc2/C1=N/NC(=S)N/N=C1\C(=O)Nc2ccccc21,respiratory syncytial virus,viral replication,HeLa,,> 100 µM
Cc1ccc(S(=O)(=O)N2C(=O)CSC2c2ccccc2[N+](=O)[O-])cc1 (stereo not shown),herpes simplex virus 1,viral cytopathicity,"HEL, KOS TK-deficient acyclovir-resistant",,> 100 µM
COC(=O)c1cc(N(C)C(=O)c2ccn3ncc(-c4ccc(C(=O)O)cc4)c3c2)ccc1Cl,Cryptosporidium parvum,cytopathic effect,HCT-8,48 h,> 20 µM
Nc1nc(F)nc2c1ncn2[C@@H]1O[C@H](COP(=O)(O)O)[C@@H](O)[C@@H]1O,human coronavirus NL63,"cytopathic effect, MTS",LLC-MK2,5 days,7.15 µM
CC(=CC(=O)NCCCCNc1cc(C(F)(F)F)nc2c(C(F)(F)F)cccc12)C(=O)NCCCCNc1cc(C(F)(F)F)nc2c(C(F)(F)F)cccc12,Zika virus,"viral cytopathic effect, MTS",Vero,,0.85 µM
Cc1ccc(S(=O)(=O)N2C(=O)CSC2c2ccc(O)cc2)cc1 (stereo not shown),herpes simplex virus 1,viral cytopathicity,"HEL, KOS",,> 100 µM
Cn1cnc(S(=O)(=O)N2CCCCN3[C@H](CO)[C@@H](c4ccc(-c5ccc(F)cc5)cc4)[C@@H]3C2)c1,respiratory syncytial virus,cytopathic effect,"HEp-2, A2","5 days, original sample",2.9 µM
N#CC1(C#N)C2C=CC(c3coc4cccc2c34)C1(C#N)C#N (stereo not shown),Alphacoronavirus 1,"viral replication, inhibitor",CRFK,2 h,6.2 µM
NC1=NC(=O)N(CC(O)C(F)(F)F)CN1 (stereo not shown),herpes simplex virus 1,cytopathic effect,"HEL, KOS, TK-deficient, acyclovir-resistant",,> 100 µM
Cc1cccc(-c2ccc([C@@H]3[C@@H](CO)N4CCCCN(S(=O)(=O)c5cn(C)cn5)C[C@@H]34)cc2)c1,respiratory syncytial virus,cytopathic effect,"HEp-2, A2","5 days, original sample",1.6 µM
NC(=O)c1ncn([C@@H]2O[C@H](CO)[C@@H](O)[C@H]2O)n1,Alphacoronavirus 1,"viral replication, inhibitor",CRFK,,51.5 µM
CCOC(=O)C(C)NP(=O)(COC(CF)CN1CN2C=C(c3ccc(OC)cc3)NC2=NC1=O)NC(C)C(=O)OCC (stereo not shown),herpes simplex virus 1,cytopathic effect,"HEL, KOS, TK-deficient, acyclovir-resistant",,> 100 µM
O=C(NCc1ccc(C(F)(F)F)cc1F)c1cn(Cc2ccc(F)cc2)cc(O)c1=O,Human betaherpesvirus 5,"viral replication, inhibitor",,7 days,0.54 µM
O=c1cc(OCc2cccc(I)c2)oc2ccc(OCc3cccc(Cl)c3)c(O)c12,Hepatitis C virus,"viral replication, inhibitor","Huh-7, GETYPE1","96 h, replicon",3 to 4 µM
Clc1ccc(Cn2c(CN3CCCC3)nc3ccccc32)cc1,Hepatitis C virus,"viral replication, inhibitor","Huh7.5, GETYPE1B","72 h, replicon",24 µM
C[C@H]1CN(c2n[nH]c3nc(N[C@H]4CC[C@H](NS(=O)(=O)CCC(F)(F)F)CC4)ncc23)CCO1,Leishmania donovani,,"mouse peritoneal macrophages, resistant clone intramacrophage amastigotes",,6.31 µM
B1 (Urtica dioica agglutinin),feline herpesvirus,"viral cytopathic effect, microscopy",CRFK,,1.4 µg/mL
O=C1C(O)=C([C@H]2CC[C@H](c3ccc(Cl)cc3)CC2)C(=O)c2ccccc21,Plasmodium berghei,,"hepatocytes, liver stage",2 h,~0.106 µM
CC(C)(C)[C@H](NC(=O)[C@@H](NC(=O)c1cnccn1)C1CCCCC1)C(=O)N1CC2(Cc3ccccc3C2)C1C(=O)NC(CC1CC1)C(=O)C(=O)NC1CC1 (stereo partly shown),Hepatitis C virus,"viral replication, inhibitor",Huh-7,replicon,0.7 µM
Nc1ccn(C[C@@H](CO)OCP(=O)(O)O)c(=O)n1,human cytomegalovirus,cytopathic effect,"HEL fibroblasts, Davis",,0.12 ± 0.03 µM
CC(C)(C)NC(=O)N(CCCCCCN1C[C@H](O)[C@@H](O)[C@H](O)[C@H]1CO)C1CCCCC1,bovine viral diarrhea virus,,MDBK,22 h,0.25 ± 0.05 µM
O=Cc1cc(Cn2ccc(=O)[nH]c2=O)ccc1O,human cytomegalovirus,cytopathic effect,"HEL fibroblasts, AD-169",,> 100 µM
O=C(NCc1ccc(F)c(Cl)c1)c1cn(Cc2ccc(F)cc2)cc(O)c1=O,Human betaherpesvirus 5,"viral replication, inhibitor",,7 days,0.62 µM
O=C(Nc1ccc(F)cc1)Oc1ccc[nH]c1=O,Alphacoronavirus 1,"viral replication, inhibitor",CRFK,2 h,> 100 µM
COc1c(C)c2c(c(O)c1C/C=C(\C)CCC(=O)O)C(=O)OC2,Zika virus,"viral cytopathic effect, MTS",Vero,,1.2 µM
CCOC(=O)c1cn(Cc2ccc(F)cc2)ccc1=O,Human betaherpesvirus 5,"viral replication, inhibitor",,7 days,> 50 µM
COc1ccc2c3c([nH]c2c1)[C@H](CO)N(Cc1ccccc1)CC31CCN(C(=O)Cc2ccccc2)CC1,respiratory syncytial virus,cytopathic effect,"HEp-2, A2","5 days, resynthesized sample",10.3 µM
Cc1ccc(S(=O)(=O)N2C(=O)CSC2c2ccccc2F)cc1 (stereo not shown),herpes simplex virus 1,viral cytopathicity,"HEL, KOS TK-deficient acyclovir-resistant",,> 100 µM

# Excerpt of the above:
Molecule,organism,test,system,conditions,EC50
N/C(=N\O)c1cc(O)c(O)c(O)c1,human cytomegalovirus,"viral spread, GFP reporter","MRC-5, BADrUL131-Y4 (AD169, GFP)",14 d,43 ± 5.5 µM
CC1(C)OB(c2ccc(NC(=O)c3cn(Cc4ccc(F)cc4)cc(O)c3=O)cc2)OC1(C)C,Human betaherpesvirus 5,"viral replication, inhibitor",,7 days,3 µM
COc1cc(C=C2CCCC(=Cc3ccc(O)c(OC)c3)C2=O)ccc1O,dengue virus 2,"viral replication, plaque reduction",BHK-21,,2.34 ± 0.21 µM
Cc1ccc(S(=O)(=O)N2C(=O)CSC2c2ccccc2)cc1 (stereo not shown),herpes simplex virus 1,viral cytopathicity,"HEL, KOS",,> 100 µM
O=C(CN1c2c(n[nH]c2-c2cccc(Cl)c2)-c2ccccc2S1(=O)=O)NN=Cc1ccccc1[N+](=O)[O-],HIV-1,viral replication,PBMC,,> 100 µM
